Experimental data collected from several papers.
Several values in a cell are separate wells, animals, samples, runs or records. ± marks the error that the study gave. In brackets after ≈: the same amount, converted by molar mass.

| Structure (SMILES) | target or system | assay | test system | setting | scale | measurement | value |
| --- | --- | --- | --- | --- | --- | --- | --- |
| CC(C)CC(C(=O)N1CC2(CC1C#N)C(=O)Nc1ccccc12)N(C)C(=O)c1cc2c(F)cc(F)c(F)c2[nH]1 (centres unmarked) | human coronavirus 229E | viral replication | – | 0.0333 µM | – | inhibition | 100% |
| CC(C)SC(SC(C)C)c1ccc(OCCNS(=O)(=O)c2cccc(Br)c2)c(Cl)c1 | Tobacco mosaic virus | curative activity | plant in vivo | – | – | EC50 | 432.4 ± 3.8 µg/mL (≈ 782 µM) |
| Cc1cc(C(=O)Nc2nc3cccc(C)c3n2[C@H]2CCCCN(C(=O)/C=C/CN(C)C)C2)ccn1 | Trypanosoma brucei | cell growth, Alamar Blue | 2T1 overexpressing Tb927.10.1070 | – | relative to: parental 2T1 | EC50 fold shift | 0.97 fold and 0.84 fold |
| CCCCCCCCCCCC(=O)C(C)C(=O)N1CCC[C@H]1C(=O)NC(C)(C)C(=O)NC(C)(C)C(=O)NC(C)(C)C(=O)N[C@](C)(CC)C(=O)NCCC(=O)N[C@@H](C)C(=O)N[C@](C)(CC)C(=O)N[C@@H](C)C(=O)N[C@@H](CC(C)C)C(=O)N[C@](C)(CC)C(=O)NCCC(=O)N[C@@H](C)C(=O)N[C@](C)(CC)C(=O)NCCC(=O)N[C@@H](C)C(=O)NC(C)(C)C(=O)NC(C)(C)C(=O)NC(C)(C)C(=O)N[C@@H](C)C(=O)N[C@@H](CC(=O)O)C(=O)O (some centres unmarked) | chitin | pull-down, LC-MS | – | 1 h, pH 7.0, 30 °C, together with: chitin 1 mg/mL | higher = less bound | unbound compound (MS peak area) | 1590 a.u. |
| CNCCO.O=C(O)C(Cl)Cl | Eclipta prostrata | – | – | 15 mg/mL, 21 days, post-emergence, greenhouse | – | herbicidal inhibition | 0% |
| COc1ccccc1-c1n[nH]c2nc(N[C@H]3CC[C@H](NS(=O)(=O)CC(C)C)CC3)ncc12 | – | bead binding, competition bead pull-down, item: LINJ.35.1240 | Leishmania donovani extract | 10 µM | relative to: vehicle | relative abundance | 1.01 |
| CCN(CC)Cc1cc(Nc2c(C3CCCC3)c(C)nc3cc(Cl)ccc23)ccc1O | West Nile virus | viral replication, Rluc reporter replicon | Vero WNV replicon cells | 50 µM, 24 h | – | inhibition | 99.8 ± 0.01% |
| COc1cc(C(SC(C)C)SC(C)C)ccc1OCCNS(=O)(=O)c1ccccc1C(F)(F)F | Tobacco mosaic virus | inactivation activity | plant in vivo | – | – | EC50 | 856.2 ± 4.5 µg/mL (≈ 1590 µM) |
| CC[N+](C)(CC)Cc1cc(Nc2ccnc3cc(Cl)ccc23)ccc1O.[Cl-] | West Nile virus | viral replication, Rluc reporter replicon | Vero WNV replicon cells | 50 µM, 24 h | – | inhibition | 50.6 ± 4.4% |
| CN1C(=O)C(C2C3=C(CC(C)(C)CC3=O)Oc3ccc([N+](=O)[O-])cc32)C(=O)N(C)C1=O (centres unmarked) | 3T3-L1 preadipocytes | adipogenesis, Oil Red O staining | – | IC20, 14 days, single replicate | – | lipid content | 0.647 OD492 |
| Cc1cc(Oc2nc(N3CC[C@@H](c4ccncc4)C3)ncc2F)[nH]n1 | Mycobacterium tuberculosis | – | THP-1, H37Rv non-replicating | 0.00949 µM, day 4 | – | normalised growth | 5.66% and 9.43% |
| CCCSC(SCCC)c1ccc(OCCNS(=O)(=O)c2ccccc2C(F)(F)F)c(OC)c1 | Tobacco mosaic virus | protective activity | plant in vivo | – | – | EC50 | 271.3 ± 1.3 µg/mL (≈ 505 µM) |
| CCCCCCCCCCCC1CC(=O)NC(CC(N)=O)C(=O)NC(Cc2ccc(O)cc2)C(=O)NC(CC(N)=O)C(=O)NC(CCC(N)=O)C(=O)N2CCCC2C(=O)NC(CC(N)=O)C(=O)NC(CO)C(=O)N1 (centres unmarked) | – | calcein leakage | DOPC/CHOL liposomes | concentration not given, together with: 20 wt% PEG-8000 | – | fusion time constant | 12 ± 4 min |
| CCCSC(SCCC)c1ccc(OCCNS(=O)(=O)c2ccc(F)cc2)c(OC)c1 | Tobacco mosaic virus | protective activity | plant in vivo | – | – | EC50 | 515.2 ± 4.3 µg/mL (≈ 1060 µM) |
| CC1CCC2C(C)C(CCCOC(=O)C(Cc3ccc(N(CCCl)CCCl)cc3)NC(=O)OC(C)(C)C)OC3OC4(C)CCC1C32OO4 (centres unmarked) | OVCAR-3 | cell growth or viability, CCK-8 | – | – | – | IC50 | 1600 nM |
| COc1cc2c(cc1NC(=O)c1cncn1C)C[C@H]1[C@H]3CCCC[C@@]23CCN1C | – | intraperitoneal glucose tolerance test | C57BL/6 mouse | dose not given, 30 min, together with: glucose 50 µg/g i.p. | – | plasma insulin | increased |
| COc1ccccc1-c1n[nH]c2nc(NC3CCN(C(=O)Cc4ccc(F)cc4F)CC3)ncc12 | – | bead binding, competition bead pull-down, item: LINJ.29.2420 | Leishmania donovani axenic amastigote extract | 10 µM | relative to: vehicle | relative abundance | 0.97 |
| O=C(O)c1ccc(-c2nc(-c3ccccc3Cl)c3sccn23)cc1 | – | – | C57BL/6 mice, 5-fluorouracil treated | dose not given, day 26 | relative to: RBC | reticulocytes | 14.9% and 18.7% and 13.4% |
| Nc1ncc(-c2cc(-c3cnn(CC(F)(F)F)c3)ncc2F)nc1C(=O)NC1CNCC(F)C1 (centres unmarked) | FLT3 ITD D835V | KINOMEscan | – | 1 µM | – | remaining binding | 34% |
| CN(C(=O)c1ccn2ncc(-c3ccc(C(N)=O)cc3)c2c1)c1ccc(C#N)cn1 | Cryptosporidium parvum | – | UGA1 Nluc, IFN-gamma knockout C57BL/6 mice, faeces | oral, 10 mg/kg daily, 312 h post infection, treatment days 11-17 | higher means more parasites | faecal Nluc luminescence | 8110 a.u. and 4550 a.u. and 247000 a.u. and 3180 a.u. |
| CCCSC(SCCC)c1ccc(OCCNS(=O)(=O)c2ccc(Br)cc2)c(OC)c1 | Tobacco mosaic virus | protective activity | plant in vivo | – | – | EC50 | 340 ± 4.3 µg/mL (≈ 619 µM) |
| CN1C(=O)C(C2C3=C(CC(C)(C)CC3=O)Oc3ccc(Cl)cc32)C(=O)N(C)C1=O (centres unmarked) | 3T3-L1 preadipocytes | adipogenesis, Oil Red O staining | – | IC20, 14 days, single replicate | – | lipid content | 0.711 OD492 |
| COc1cc(C(SC(C)C)SC(C)C)ccc1OCCNS(=O)(=O)c1ccc(Cl)cc1 | tobacco mosaic virus | inactivation activity | in vivo plant | – | – | EC50 | 57.7 ± 1.4 µg/mL (≈ 114 µM) |
| CC(C)(C)C(=O)OCOP(=O)(OCOC(=O)C(C)(C)C)C1CCCN(O)C1=O (centres unmarked) | OVCAR-5 | – | – | – | – | log LC50 | > -4 log M |
| CC(C)[C@@H]1NC(=O)[C@@H]2CCCN2C(=O)[C@@H](C(C)C)NC(=O)[C@H]2CCCN2C(=O)[C@H](C(C)C)NC(=O)[C@@H]2CCCN2C(=O)[C@@H](C(C)C)NC(=O)[C@H]2CCCN2C(=O)[C@H](C(C)C)NC(=O)[C@@H]2CCCN2C(=O)[C@@H](C(C)C)NC(=O)[C@H]2CCCN2C1=O | – | – | sheep lipid bilayer | 10 µM, pH 7.4, 23 °C, together with: 10 mM K+ vs Rb chloride | – | bi-ionic potential | 26 mV |
| COc1cc(C(SC(C)C)SC(C)C)ccc1OCCNS(=O)(=O)c1ccc(F)c(Cl)c1 | Tobacco mosaic virus | protective activity | plant in vivo | – | – | EC50 | 631.1 ± 2.9 µg/mL (≈ 1210 µM) |
